Measured values collected from several papers.
A part holds a random share of what one study measured.

Sample 1
Target: RNA binding protein fox-1 homolog 2, RRM domain, GST-SBP tag (RBFOX2, Homo sapiens, UniProt O43251-10, residues 100-194)
Technique: RNA Bind-n-Seq
Molecule type: RNA
Matrix: in vitro
Concentration: 365 nM
Setting: natural RNA segment, single round, ends assumed
Relative to: no-protein control
Direction: higher = stronger binding
Quantity: RBNS enrichment (R)
Constant ends, left off below: GGGAGUUCUACAGUCCGACGAUC … UGGAAUUCUCGGGUGCCAA
Residues (chain): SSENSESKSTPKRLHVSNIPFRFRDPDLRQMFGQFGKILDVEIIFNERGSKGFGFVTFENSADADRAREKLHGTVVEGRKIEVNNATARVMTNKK
AUUUUCCAUGAGAAACAACAGAGUUAACCUGUGGCAUUAGGAGACCUACUUCAUGUGGACCCUUUUUUUCCUUCAGUUUAACUUUUCUGGAGCAGUGUGCUGCGUAGUUC: 0.296
UUGCAUUACUGCAAAACAGCAAAAACCGAAUAACCCGAGCCCUGCUGCUUUCUGAGCCCUGGGCCUGUGUCCUCCUAGAACUUCCAGGUUCCCGUUGCUUUGUUUUUCUG: 0.413
GACCGAGCAGGAACAGAGGCUGCAGUUGGGCUGGCUGACUGAGGGUGCCUGGCUGCCCAGCCUGCGGUAGCCGUGCUCCCUGCCCUCCUGUGGCCCUAUGGUGUGAUGCU: 7.02
GUGUCUGUCAUGAAACCACUAACUGCAUUCCUGACUGAAGAGCCAUCUGUCAUUUAUUGGGGAAGGUCUUCAGUUGAGCUCUCAGCCUUAGGAAGGAAGCACGUGGAGGA: 0.38
UCAGAAAACUGUGAAGCAGGGGUCUUGUUAGUUACAAAGCCAGUCCUAGUUGCAUGUCCAAGGGGGUAGAUUUUCAUCACCCUACUAAAUGUGGUAUGUCACUGCUGAAG: 0.815
AGUUUUUGAGACUAGUUUACCUCUUCACAUUUAUGCUCACAACCCUCUUGUUAGAAAAGUCUGUGUUUAUAUACAGGCUGUAAGUUUGUGAUUGAUAAAAAGAAGAUGAG: 0.38
GCCUCAUUAACACUCUUAACUCUGGGAUAGAACCCUAAGCAACAACAACAACAAAAGUGUCAUAUUUUAGAAGGCCUAGAGGUGACUCAUUUUAGAUAUAUAUACUUUGU: 0.507
GUACAAAACACAACCGAGGAGCGUAUACAGUUGAAAACAUUUUUGUUUUGAUUGGAAGGCAGAUUAUUUUAUAUUAGUAUUAAAAAUCAAACCCUAUGUUUCUUUCAGAU: 0.639
CAUCUCCAGGAGGGCCCGGGGCUCCUGCGUCCCUCGGGGUCUGUCAUGUGACCUGUUUGGCCCCUAACUGUCCCUUCUUUUCACUGCUUCUGUCUGACACCAUCUCCCUU: 1.06
GGGUCCAGCUUGCGGGGGACCCUCCCCAGCCCAUUCCUGCUGUCAAACAAACAAAACCUUGCAAAGCCUGGGUUCUGCUGGCUGUUUUUCUCCCUACAUCGCGUUCCUCA: 1.03
UGGAAGCCCUGAUCCCCCAGAGAGCUACAGGUCUGCUCCCGACGGGCCUCGGGCCUGACCCGUCCACACAGGGCCGUGUCAACAGCAGCGACUCAAGGGACGUGUGUACA: 0.299
GGAGUGUGACCUUGGUGUACUGUGGCAGCCCAGAUGACUGAGUGCUACAGACGAGUGACCCUUAGAUGACCUCCUCAACUGCCUGCCUUGUGUGUGCGCGCAAGGCCCCU: 0.349

Sample 2
Target: Cyclic AMP-responsive element-binding protein 1 (CREB1, Homo sapiens, UniProt P16220, residues 1-327, full length assumed)
UniProt P16220, sequence (whole entry, looked up): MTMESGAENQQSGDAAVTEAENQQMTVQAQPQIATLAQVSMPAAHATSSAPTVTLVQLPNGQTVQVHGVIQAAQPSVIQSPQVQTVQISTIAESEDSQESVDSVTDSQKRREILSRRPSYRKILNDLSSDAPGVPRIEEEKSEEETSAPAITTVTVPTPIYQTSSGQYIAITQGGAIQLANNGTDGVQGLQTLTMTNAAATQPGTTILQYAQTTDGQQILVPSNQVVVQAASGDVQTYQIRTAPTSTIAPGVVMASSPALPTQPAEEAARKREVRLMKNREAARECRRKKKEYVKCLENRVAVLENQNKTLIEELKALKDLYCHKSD
Technique: protein-binding microarray
Molecule type: double-stranded DNA, one strand shown
Matrix: in vitro
Concentration: not given
Setting: k-mer, scored over probes, only values ≥0.25
Direction: higher = stronger binding
Quantity: E-score
ACCTGTA: 0.252
TACGTCA: 0.496
CAAAAAA: 0.256
AACGTCA: 0.474
ATTATTA: 0.256
GGCGTCA: 0.349
AACATAC: 0.257
TTACGAA: 0.257
ATGACAC: 0.276
ATACACA: 0.273
GTCATGA: 0.266
TATTGCA: 0.255

Sample 3
Target: PABPC1L2, full length, GST fusion (mouse, UniProt A0ABA7IW68)
Technique: RNAcompete
Molecule type: RNA
Matrix: in vitro
Concentration: 20 nM
Setting: 7-mer, probes averaged, single round
Relative to: mean of 7-mers
Direction: higher = stronger binding
Quantity: 7-mer Z-score
Target sequence (chain): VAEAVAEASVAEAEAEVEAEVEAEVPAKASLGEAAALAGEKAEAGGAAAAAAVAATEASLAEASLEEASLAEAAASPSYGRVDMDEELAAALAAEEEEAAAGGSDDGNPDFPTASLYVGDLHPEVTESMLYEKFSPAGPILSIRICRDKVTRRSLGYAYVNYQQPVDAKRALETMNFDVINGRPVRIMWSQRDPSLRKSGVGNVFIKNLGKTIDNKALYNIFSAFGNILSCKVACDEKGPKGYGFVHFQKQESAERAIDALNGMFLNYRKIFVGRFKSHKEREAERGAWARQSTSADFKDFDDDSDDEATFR
AUGCCAU: -0.117
AGCAAUC: 0.066
AGUGUGG: 0.0551
UGCAUCG: -0.302
UGUGGGG: 0.269
AGAUACC: -0.383
GUAUUUA: 0.095
AUGCCCA: -0.161
ACGUGGG: 0.207
GUAGUUG: -0.264
CUUCAAU: -0.277
CAUGCUG: -0.0953
CUGUGGA: 0.189
UGGGCUU: -0.0047
CGACAUU: -0.122

Sample 4
Target: Centromere-binding protein 1, full length, His-tagged (CBF1, Saccharomyces cerevisiae, UniProt P17106, residues 1-351)
UniProt P17106, sequence (whole entry, looked up): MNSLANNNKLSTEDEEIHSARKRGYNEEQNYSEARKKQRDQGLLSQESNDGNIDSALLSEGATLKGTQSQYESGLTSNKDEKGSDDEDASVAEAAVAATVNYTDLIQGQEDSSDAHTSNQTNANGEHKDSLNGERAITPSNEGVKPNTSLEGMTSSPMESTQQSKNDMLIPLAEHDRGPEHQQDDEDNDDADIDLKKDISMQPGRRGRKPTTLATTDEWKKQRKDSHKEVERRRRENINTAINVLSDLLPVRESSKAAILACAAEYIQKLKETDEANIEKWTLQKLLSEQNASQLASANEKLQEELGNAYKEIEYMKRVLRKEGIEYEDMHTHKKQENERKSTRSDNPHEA
Technique: competition protein-binding microarray
Molecule type: double-stranded DNA, one strand shown
Matrix: in vitro
Concentration: 2 µM
Setting: whole 60-bp probe, lowest competitor level
Added: Pho4 competitor, 0.05 µM
Direction: higher = stronger binding
Quantity: fluorescence intensity
Constant ends, left off below: … GTCTTGATTCGCTTGACGCTGCTG
TAGTCTGCGGAGAGCAACGTGCAAAAACTAAAGGTA: 112 a.u.
ATCAAATGCTGATACCACATGTATGCTATAGTGTCG: 128 a.u.
ACCGGTTTTCTCGTCCACGTGAACGGTGTCAACACC: 1910 a.u.
CGGGGTTAAGTTTGGCTGGTGGGTGGCTTGCAGCAG: 63.2 a.u.
CGGGGTTAAGTTTGTCACAAAACTTGCTTGCAGCAG: 79 a.u.
CCGGAAAAACCTGTTCGCGTGAGCCGAACAACTTTC: 89.2 a.u.
CTTGGTATCAATTTCTTCGTGCTTTGCTTGGTTGAA: 85.8 a.u.
TTAAGAAGCCTTTTCCATGTGAGGAAGCTTCGCCTT: 61 a.u.
CATACCCAACCTTGCACCGTGGGTGAAGATATTTGT: 74.8 a.u.
TGCGCAACAACTTGGATGGTGGGTGTATGTCTAGAA: 62.9 a.u.
CTTTCCCGATCTTGTGCGGTGGGTGTAGCACATTTG: 62 a.u.
CTAGAAAAGAAACACCGCGTGGTGAATCTATGTCCA: 100 a.u.
AAAGCGGTAATTTGTCACTCCACTTCACATATCTAT: 81.2 a.u.
ATATATAAAGTGCGTAATGTGCGTACTAAAAAAGCT: 110 a.u.
GAGACTTTCAGCCATCACGTGTAATAAAATATCACC: 5180 a.u.
ATCCCCTCTGTAAGACACGTTGGTCCACTGTAGCTT: 81.6 a.u.
TAGGAAGAAGAACTCGTCGTGCAAATCGGATAGTTG: 85 a.u.
CTTTGTGATAGGCTTCACGTGTGAAATTGACACAGA: 871 a.u.
CTTTCCCGATCTTGACAAGTGGGTGTAGCACATTTG: 71.6 a.u.
AATGCAAACTGGGAGAATGTGACTCGATCGAGGAAA: 86.9 a.u.
ATTTTTGAGTCAGTTTCCGTGACGGTGAAGTGAGCG: 75.8 a.u.
CATACCCAACCTTTTCACGTGTGTTAAGATATTTGT: 973 a.u.
CGGGGTTAAGTTTGCTAAGTGGGTGGCTTGCAGCAG: 89.8 a.u.
AAAGCGGTAATTTGGTAAGTGGGTGCAGATATCTAT: 73.4 a.u.

Sample 5
Target: Ras GTPase-activating protein-binding protein 1, full length (G3BP1, Homo sapiens, UniProt Q13283)
UniProt Q13283, sequence (whole entry, looked up): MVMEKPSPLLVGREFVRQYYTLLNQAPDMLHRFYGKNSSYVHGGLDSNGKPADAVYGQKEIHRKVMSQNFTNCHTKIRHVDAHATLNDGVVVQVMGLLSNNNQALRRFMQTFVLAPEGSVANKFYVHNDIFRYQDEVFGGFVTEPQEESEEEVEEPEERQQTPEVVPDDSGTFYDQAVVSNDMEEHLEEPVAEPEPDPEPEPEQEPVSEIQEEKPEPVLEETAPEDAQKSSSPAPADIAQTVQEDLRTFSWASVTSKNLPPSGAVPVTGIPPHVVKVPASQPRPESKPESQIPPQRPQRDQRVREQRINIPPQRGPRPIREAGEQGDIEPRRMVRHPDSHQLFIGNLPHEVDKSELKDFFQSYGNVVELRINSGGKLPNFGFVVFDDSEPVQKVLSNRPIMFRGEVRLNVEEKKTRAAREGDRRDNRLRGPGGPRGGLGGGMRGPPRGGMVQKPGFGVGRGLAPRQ
Technique: RNA Bind-n-Seq
Molecule type: RNA
Matrix: in vitro
Concentration: 200 nM
Setting: whole 134-nt RNA, ends assumed
Added: 150 mM KCl
Relative to: input library
Direction: higher = stronger binding
Quantity: log2 enrichment
Constant ends, left off below: GGGAGUUCUACAGUCCGACGAUC … UGGAAUUCUCGGGUGUCAAGG
AGUCCUGUGCUACACAUCGUAUGUACCGAAUCGGAAAAAAGGAAAAAAGGAAAAAAGGAAAGUAUUAUGUUACGCCGUUCGGAUCUGCAC: -1.13
CUGUGCUACACAUCGUAUGUACCGAAUCGGGCCCCCCCGGCCCCCCCGGGGCCCCCCCGGGAAAGUAUUAUGUUACGCCGUUCGGAUCUG: -0.618
CAAGUCCUGUGCUACACAUCGUAUGUACCGAAUCGGCCCCGGCCCCGGCCCCGGGGAAAGUAUUAUGUUACGCCGUUCGGAUCUGCACUU: -1.04
UCAUUAGAAGAUCUAAUUGAGAGAGAGGUAACUGGUAUCCUUUUCCUACCAUAAAAACUGAAAGCAGUAUUUAUUGUGAAAUUCUAAUAC: -0.648
ACCAUGCAGGUGGGCAUCUUUGGGAAGUGGGGCAAGGGGGGGAUAGGGAGGAGGGUAACACUUUGGGAACAGGUGGUCCCAGGUCGUUUC: 1.3
UGGGAGGUGGAUUUUGUUUAUUUUUUUAGCUCAAUUCCAGGGGUGGGAAUUUUUUUUUAAUAUGUGUCAUGAAUAAAGUUGUUUUUGAAA: 0.53
ACCAUGCAGGUGGGCAUCUUUGGGAAGUGGGGCAAGGGGGGGAUAGGGAGGGGGGUAACACUUUGGGACCAGGUGGUCCCAGGUCGUUUC: 0.932
CUGUGCUACACAUCGUAUGUACCGAAUCGGGUUUUUUUGGUUUUUUUGGGGUUUUUUUGGGGAAAGUAUUAUGUUACGCCGUUCGGAUCU: -0.987
AGUCCUGUGCUACACAUCGUAUGUACCGAAUCGGGAAAGGGUUUGGGUUUUUUUGGGAAAGUAUUAUGUUACGCCGUUCGGAUCUGCACU: -0.212
CUCAAGUCCUGUGCUACACAUCGUAUGUACCGAAUCGGGGAAGGGGAAGGAAGGAAAGUAUUAUGUUACGCCGUUCGGAUCUGCACUUCC: -0.2
GUCCUGUGCUACACAUCGUAUGUACCGAAUCGGGUUUUUGGGUUUUUGGGUUUUUGGGGAAAGUAUUAUGUUACGCCGUUCGGAUCUGCA: -0.147
UUUUAUUCUUCCAUCUUUUCCCACAGGUGGCAGCUGCCAACAAGAAGCAUUAGAACAAACCAUGCUGGGUUAAUAAAUUGCCUCAUUCGU: -0.179
UAACUUUAGAGGAGGAUCUGAUGGAUAUGGCAGUGGACGUGGAUUUGGGGAUGGCUAAAAUGGGUAUGGAGGAGGACCUGGAGGUGGCAA: 0.205
GCAGGGAGUAAAAACAAAUGGAAAUGCUUCGGAUAGUGGCAGGGGUGGGGGUUGCUAAGGAAAGGGUGGGAUGGGAGUGGGUAAAGAGUU: 0.938

Repeated from above (sample 2):
TACGTCA: 0.496
AACGTCA: 0.474
ATACACA: 0.273
CAAAAAA: 0.256
ATGACAC: 0.276
ACCTGTA: 0.252
ATTATTA: 0.256
AACATAC: 0.257
TATTGCA: 0.255
GTCATGA: 0.266
GGCGTCA: 0.349
TTACGAA: 0.257
